Experimental data gathered from unrelated publications.
Each numbered part is a random draw from the data of one study; scales do not carry over between parts.
Chain of UniProt P22607 (whole entry, unmodified, looked up): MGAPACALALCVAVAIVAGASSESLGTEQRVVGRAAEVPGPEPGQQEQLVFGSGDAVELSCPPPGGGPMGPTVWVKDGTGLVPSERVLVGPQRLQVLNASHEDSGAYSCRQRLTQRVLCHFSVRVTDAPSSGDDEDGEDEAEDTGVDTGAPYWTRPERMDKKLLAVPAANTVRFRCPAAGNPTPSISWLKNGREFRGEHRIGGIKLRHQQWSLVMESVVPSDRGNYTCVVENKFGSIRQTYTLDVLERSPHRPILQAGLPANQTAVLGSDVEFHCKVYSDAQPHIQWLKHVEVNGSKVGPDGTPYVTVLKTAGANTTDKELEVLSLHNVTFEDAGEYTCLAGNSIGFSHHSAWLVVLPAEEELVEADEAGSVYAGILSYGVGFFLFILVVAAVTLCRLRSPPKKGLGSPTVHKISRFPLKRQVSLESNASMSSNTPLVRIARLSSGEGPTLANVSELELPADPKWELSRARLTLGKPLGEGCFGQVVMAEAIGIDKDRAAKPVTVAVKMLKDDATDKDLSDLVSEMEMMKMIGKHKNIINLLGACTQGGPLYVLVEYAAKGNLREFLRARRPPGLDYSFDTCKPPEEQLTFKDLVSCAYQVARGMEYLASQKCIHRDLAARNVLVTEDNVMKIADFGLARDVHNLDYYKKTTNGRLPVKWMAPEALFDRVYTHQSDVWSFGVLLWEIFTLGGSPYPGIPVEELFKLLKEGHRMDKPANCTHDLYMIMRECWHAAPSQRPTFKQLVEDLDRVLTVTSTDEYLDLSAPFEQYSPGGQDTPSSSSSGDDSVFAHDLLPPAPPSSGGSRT
Chain of UniProt P43115 (whole entry, looked up): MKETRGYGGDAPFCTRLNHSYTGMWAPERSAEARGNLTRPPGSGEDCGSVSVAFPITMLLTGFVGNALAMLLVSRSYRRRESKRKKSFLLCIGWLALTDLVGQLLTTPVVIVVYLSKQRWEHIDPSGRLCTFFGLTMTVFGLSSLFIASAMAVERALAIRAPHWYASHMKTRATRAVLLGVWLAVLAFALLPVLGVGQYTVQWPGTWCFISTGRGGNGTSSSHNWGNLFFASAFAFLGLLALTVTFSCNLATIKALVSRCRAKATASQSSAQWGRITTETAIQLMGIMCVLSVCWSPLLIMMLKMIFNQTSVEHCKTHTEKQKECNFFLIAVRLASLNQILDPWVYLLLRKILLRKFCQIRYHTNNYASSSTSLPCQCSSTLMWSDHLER
Chain of UniProt Q04912 (whole entry, looked up): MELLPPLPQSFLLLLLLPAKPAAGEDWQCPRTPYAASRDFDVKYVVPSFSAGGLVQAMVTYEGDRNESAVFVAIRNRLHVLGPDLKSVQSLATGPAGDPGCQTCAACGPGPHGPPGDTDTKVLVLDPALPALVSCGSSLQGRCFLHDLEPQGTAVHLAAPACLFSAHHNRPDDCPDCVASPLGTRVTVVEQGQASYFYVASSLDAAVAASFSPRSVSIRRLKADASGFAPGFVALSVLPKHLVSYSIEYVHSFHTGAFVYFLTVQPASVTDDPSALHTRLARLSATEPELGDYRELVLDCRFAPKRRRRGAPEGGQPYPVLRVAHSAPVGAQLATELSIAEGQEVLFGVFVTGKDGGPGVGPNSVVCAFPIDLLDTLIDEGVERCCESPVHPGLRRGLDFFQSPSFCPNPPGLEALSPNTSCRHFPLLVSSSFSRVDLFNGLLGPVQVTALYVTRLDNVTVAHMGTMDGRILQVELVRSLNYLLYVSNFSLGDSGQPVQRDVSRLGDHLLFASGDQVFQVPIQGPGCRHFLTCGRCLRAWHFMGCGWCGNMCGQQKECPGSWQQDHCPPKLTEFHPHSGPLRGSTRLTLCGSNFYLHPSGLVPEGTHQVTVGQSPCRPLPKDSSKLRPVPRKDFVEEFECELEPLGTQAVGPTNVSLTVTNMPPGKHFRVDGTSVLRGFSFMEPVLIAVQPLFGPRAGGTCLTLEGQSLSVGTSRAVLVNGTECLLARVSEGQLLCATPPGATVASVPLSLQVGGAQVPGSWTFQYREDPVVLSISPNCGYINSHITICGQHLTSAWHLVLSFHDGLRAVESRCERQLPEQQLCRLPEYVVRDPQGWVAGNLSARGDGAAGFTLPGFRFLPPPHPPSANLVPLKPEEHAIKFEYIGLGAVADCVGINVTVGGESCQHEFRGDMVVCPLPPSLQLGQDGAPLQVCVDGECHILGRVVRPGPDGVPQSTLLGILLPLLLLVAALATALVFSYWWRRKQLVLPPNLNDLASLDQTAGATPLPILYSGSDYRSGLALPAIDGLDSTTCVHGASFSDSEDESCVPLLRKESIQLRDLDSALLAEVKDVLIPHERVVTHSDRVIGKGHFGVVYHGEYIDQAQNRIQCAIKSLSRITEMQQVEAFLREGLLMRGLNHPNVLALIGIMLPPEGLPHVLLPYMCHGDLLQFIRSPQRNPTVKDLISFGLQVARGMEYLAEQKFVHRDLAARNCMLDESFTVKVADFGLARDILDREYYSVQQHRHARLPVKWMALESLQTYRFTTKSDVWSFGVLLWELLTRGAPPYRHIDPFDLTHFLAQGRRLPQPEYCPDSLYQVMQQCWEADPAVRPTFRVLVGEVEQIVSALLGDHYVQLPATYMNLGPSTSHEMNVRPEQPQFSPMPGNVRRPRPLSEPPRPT
Chain of UniProt Q8NFD2 (whole entry, looked up): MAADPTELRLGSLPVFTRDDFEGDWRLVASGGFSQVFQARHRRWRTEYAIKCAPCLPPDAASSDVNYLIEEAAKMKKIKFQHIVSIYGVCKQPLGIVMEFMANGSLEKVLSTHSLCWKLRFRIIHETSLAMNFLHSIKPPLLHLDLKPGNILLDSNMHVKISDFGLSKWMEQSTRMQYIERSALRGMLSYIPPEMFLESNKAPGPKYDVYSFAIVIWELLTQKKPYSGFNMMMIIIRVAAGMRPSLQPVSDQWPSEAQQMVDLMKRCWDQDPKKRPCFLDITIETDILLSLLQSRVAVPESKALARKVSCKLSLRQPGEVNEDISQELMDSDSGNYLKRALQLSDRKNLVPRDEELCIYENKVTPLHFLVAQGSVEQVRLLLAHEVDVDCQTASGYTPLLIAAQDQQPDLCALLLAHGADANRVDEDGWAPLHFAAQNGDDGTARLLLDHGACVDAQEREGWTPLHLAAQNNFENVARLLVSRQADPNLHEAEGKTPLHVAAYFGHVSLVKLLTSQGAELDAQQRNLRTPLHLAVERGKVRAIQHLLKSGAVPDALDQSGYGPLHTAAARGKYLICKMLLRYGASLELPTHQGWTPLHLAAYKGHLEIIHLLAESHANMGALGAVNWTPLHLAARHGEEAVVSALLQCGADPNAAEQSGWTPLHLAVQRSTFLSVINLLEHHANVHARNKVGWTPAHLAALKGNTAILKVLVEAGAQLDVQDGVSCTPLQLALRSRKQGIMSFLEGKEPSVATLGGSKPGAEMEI
Chain of UniProt P36896 (whole entry, looked up): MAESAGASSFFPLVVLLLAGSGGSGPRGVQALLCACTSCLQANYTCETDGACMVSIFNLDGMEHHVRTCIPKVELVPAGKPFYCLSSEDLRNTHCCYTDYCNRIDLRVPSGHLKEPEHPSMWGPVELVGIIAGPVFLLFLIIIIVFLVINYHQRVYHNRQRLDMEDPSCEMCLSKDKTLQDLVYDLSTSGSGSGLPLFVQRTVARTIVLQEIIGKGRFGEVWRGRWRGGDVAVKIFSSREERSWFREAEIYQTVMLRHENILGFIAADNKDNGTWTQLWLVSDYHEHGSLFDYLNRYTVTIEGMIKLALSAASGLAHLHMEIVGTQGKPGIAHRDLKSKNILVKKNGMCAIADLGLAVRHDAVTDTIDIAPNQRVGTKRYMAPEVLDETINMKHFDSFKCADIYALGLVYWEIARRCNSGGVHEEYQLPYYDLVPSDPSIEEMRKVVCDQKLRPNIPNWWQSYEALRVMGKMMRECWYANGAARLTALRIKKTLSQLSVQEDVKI
Chain of UniProt Q8TDV0 (whole entry, looked up): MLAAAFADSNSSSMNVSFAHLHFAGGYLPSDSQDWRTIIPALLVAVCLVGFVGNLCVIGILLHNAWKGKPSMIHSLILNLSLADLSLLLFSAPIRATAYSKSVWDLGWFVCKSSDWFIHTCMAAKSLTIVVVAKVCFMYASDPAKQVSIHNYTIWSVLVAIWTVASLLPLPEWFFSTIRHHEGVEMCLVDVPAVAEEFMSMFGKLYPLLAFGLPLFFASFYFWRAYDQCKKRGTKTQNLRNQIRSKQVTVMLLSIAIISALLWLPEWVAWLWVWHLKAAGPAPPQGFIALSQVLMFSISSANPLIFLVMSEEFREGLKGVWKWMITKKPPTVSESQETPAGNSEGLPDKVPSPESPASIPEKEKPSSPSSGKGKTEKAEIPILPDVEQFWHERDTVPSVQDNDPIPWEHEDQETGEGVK
Chain of UniProt P41587 (whole entry, looked up): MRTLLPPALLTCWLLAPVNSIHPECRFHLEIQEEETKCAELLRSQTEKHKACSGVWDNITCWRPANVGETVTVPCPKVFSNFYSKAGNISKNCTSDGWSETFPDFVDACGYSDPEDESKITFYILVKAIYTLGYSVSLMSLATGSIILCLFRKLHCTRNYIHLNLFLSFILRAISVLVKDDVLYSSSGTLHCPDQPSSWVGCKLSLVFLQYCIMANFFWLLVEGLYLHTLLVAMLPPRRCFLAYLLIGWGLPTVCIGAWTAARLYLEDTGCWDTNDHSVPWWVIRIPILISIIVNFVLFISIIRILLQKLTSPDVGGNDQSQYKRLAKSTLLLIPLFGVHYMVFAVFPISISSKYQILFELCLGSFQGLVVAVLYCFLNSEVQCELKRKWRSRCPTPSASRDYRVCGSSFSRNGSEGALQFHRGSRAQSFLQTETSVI
Chain of UniProt Q86SM8 (whole entry, looked up): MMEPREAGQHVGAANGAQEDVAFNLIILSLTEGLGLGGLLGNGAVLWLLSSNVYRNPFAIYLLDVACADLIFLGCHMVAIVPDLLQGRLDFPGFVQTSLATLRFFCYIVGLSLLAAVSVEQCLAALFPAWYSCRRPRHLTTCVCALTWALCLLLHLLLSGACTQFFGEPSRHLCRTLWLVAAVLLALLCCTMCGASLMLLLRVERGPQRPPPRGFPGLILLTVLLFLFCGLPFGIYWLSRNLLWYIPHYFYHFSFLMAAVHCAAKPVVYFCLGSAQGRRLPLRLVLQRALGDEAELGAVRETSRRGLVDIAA

Series 1
SMILES: C[C@H]1CC[C@H](n2c3cnccc3c3cnc(Nc4ccc5c(n4)CCN(C(=O)CO)C5)nc32)CC1
Effect on: cell-free assay
Concentration: 1 µM
It gave 68% for remaining signal (MAP3K9 (Homo sapiens, UniProt P80192)).
It gave 100% for remaining signal (MTOR (Homo sapiens, UniProt P42345)).
It gave 66% for remaining signal (ABL1 (Homo sapiens, UniProt P00519, Q252H)).
The remaining signal was 76% (FGFR3 (Homo sapiens, UniProt P22607, G697C)).

Series 2
Compound: CC(C)(O)c1cncc(-c2nc3ccc(F)cc3n2C2CC2)c1
Effect on: cell-free assay
Technique: competition with immobilised ligand
Concentration: 1 µM
CDK9 (Homo sapiens, UniProt P50750) — remaining binding: 100%.
For PIK3CB (Homo sapiens, UniProt P42338): remaining binding read 81%.
It gave 100% for remaining binding (ANKK1 (Homo sapiens, UniProt Q8NFD2)).
For MAPK3 (Homo sapiens, UniProt P27361): remaining binding read 100%.

Series 3
Compound: O=C1c2ccccc2-c2nc3nnnn3nc21
Effect on: enzyme activity
Action: inhibitor
Concentration: 0.5 µM
Reference: control
The remaining activity was 90.4% (JAK3 (Homo sapiens, UniProt P52333)).
For MST1R (Homo sapiens, UniProt Q04912): remaining activity read 93.6%.
It gave 4.27% for remaining activity (TEK (Homo sapiens, UniProt Q02763)).
The remaining activity was 124% (MAP3K14 (Homo sapiens, UniProt Q99558)).
For MERTK (Homo sapiens, UniProt Q12866): remaining activity read 93.1%.
For TAOK2 (Homo sapiens, UniProt Q9UL54): remaining activity read 91.9%.
CSNK1G2 (Homo sapiens, UniProt P78368) — remaining activity: 82.2%.
It gave 87% for remaining activity (TBK1 (Homo sapiens, UniProt Q9UHD2)).
It gave 94.7% for remaining activity (MAP2K2 (Homo sapiens, UniProt P36507)).
The remaining activity was 80.3% (CSNK1G3 (Homo sapiens, UniProt Q9Y6M4)).
For ULK3 (Homo sapiens, UniProt Q6PHR2): remaining activity read 103%.
MAPKAPK2 (Homo sapiens, UniProt P49137) — remaining activity: 104%.
It gave 113% for remaining activity (ACVR1B (Homo sapiens, UniProt P36896)).
It gave 26.7% for remaining activity (FGFR3 (Homo sapiens, UniProt P22607)).

Series 4
SMILES: N=C(N)NC(=O)c1cnn(-c2cccc3ncccc23)c1C1CC1
Effect on: β-arrestin recruitment
Action: agonist
Technique: PRESTO-Tango
Concentration: 10 µM
Reference: untreated
G-protein coupled receptor 151 (GPR151, Homo sapiens, UniProt Q8TDV0) — “fold over basal”: 1.43.
For F2R (Homo sapiens, UniProt P25116): “fold over basal” read 1.38.
PTGER3 (Homo sapiens, UniProt P43115) — “fold over basal”: 1.13.
It gave 0.98 for “fold over basal” (Mas-related G-protein coupled receptor member E (MRGPRE, Homo sapiens, UniProt Q86SM8)).
The “fold over basal” was 0.67 fold (VIPR2 (Homo sapiens, UniProt P41587)).
Probable G-protein coupled receptor 82 (GPR82, Homo sapiens, UniProt Q96P67) — “fold over basal”: 1.2.

Some of these lines once more (series 3):
It gave 113% for remaining activity (ACVR1B (Homo sapiens, UniProt P36896)).
It gave 94.7% for remaining activity (MAP2K2 (Homo sapiens, UniProt P36507)).
For TAOK2 (Homo sapiens, UniProt Q9UL54): remaining activity read 91.9%.
It gave 87% for remaining activity (TBK1 (Homo sapiens, UniProt Q9UHD2)).
